Measurements from different studies.
Each numbered part is a random draw from the data of one study; scales do not carry over between parts.

Series 1 — method: RNA Bind-n-Seq; molecule type: RNA; sample: in vitro; concentration: 20 nM; notes: 6-mer, flanks averaged, single round; together with: 150 mM KCl; reference: input library; reading: higher = stronger binding
Target: TAR DNA-binding protein 43, full length, His tag (TARDBP, Homo sapiens, UniProt Q13148, residues 1-414)
Strand	6-mer enrichment (R)
UUCCAG	0.669
AUCAUC	0.532
GCCGGA	1.45
CGGCCG	1.39
UCGCUC	0.559
CAGUAU	0.677

Series 2 — method: competition protein-binding microarray; molecule type: double-stranded DNA, one strand shown; sample: in vitro; concentration: 2 µM; together with: Cbf1 competitor, 0.05 µM; reading: higher = stronger binding
Target: Phosphate system positive regulatory protein PHO4, full length, GST-tagged (PHO4, Saccharomyces cerevisiae, UniProt P07270, residues 1-312)
Notes: whole 60-bp probe, lowest competitor level
Construct (chain): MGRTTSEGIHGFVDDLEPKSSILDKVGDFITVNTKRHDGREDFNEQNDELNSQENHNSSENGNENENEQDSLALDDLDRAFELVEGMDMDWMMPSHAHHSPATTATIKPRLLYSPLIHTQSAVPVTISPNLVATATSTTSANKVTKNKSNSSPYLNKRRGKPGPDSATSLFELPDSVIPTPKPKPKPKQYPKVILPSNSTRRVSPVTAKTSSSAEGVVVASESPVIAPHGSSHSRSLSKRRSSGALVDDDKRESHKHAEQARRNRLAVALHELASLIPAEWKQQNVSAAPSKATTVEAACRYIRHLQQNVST
Strand	fluorescence intensity [a.u.]
AAAGCGGTAATTTGTCACGGTACTTCACATATCTATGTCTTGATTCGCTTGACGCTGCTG	4440
TTACAACAGGAATACCTTGTGACAGGCAACCAAGAAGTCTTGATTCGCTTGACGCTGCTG	4220
CATTGGGTATACCATCACGTGTACTATCAAATAAAGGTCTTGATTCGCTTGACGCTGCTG	15000
GGGTGTGCATCTGGGCATGATCTACCAAGAGGACAGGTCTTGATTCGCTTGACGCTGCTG	7600
CTACGGAATAGCGGCCACGTTTCCGTAGGTTACTATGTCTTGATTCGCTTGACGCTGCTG	13700
CTAACGAAGGTTTGTCACTTAACTTACAAGCCAAGTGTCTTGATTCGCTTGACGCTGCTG	3150
AGTCTCATCTTCTTTCCCGTGCCGACGGGTTTAGTAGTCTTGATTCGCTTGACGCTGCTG	7380
CTCCATATGGTACTATCACTTCTGCAAAGGTTATGAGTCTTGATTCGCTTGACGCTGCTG	4320

Series 3 — method: universal PBM; molecule type: double-stranded DNA, one strand shown; sample: in vitro; concentration: 600 nM; reading: higher = stronger binding
Target: Sal-like protein 4, full length isoform A (SALL4, Homo sapiens, UniProt Q9UJQ4, residues 1-1053)
Sequence of UniProt Q9UJQ4 (whole entry, looked up): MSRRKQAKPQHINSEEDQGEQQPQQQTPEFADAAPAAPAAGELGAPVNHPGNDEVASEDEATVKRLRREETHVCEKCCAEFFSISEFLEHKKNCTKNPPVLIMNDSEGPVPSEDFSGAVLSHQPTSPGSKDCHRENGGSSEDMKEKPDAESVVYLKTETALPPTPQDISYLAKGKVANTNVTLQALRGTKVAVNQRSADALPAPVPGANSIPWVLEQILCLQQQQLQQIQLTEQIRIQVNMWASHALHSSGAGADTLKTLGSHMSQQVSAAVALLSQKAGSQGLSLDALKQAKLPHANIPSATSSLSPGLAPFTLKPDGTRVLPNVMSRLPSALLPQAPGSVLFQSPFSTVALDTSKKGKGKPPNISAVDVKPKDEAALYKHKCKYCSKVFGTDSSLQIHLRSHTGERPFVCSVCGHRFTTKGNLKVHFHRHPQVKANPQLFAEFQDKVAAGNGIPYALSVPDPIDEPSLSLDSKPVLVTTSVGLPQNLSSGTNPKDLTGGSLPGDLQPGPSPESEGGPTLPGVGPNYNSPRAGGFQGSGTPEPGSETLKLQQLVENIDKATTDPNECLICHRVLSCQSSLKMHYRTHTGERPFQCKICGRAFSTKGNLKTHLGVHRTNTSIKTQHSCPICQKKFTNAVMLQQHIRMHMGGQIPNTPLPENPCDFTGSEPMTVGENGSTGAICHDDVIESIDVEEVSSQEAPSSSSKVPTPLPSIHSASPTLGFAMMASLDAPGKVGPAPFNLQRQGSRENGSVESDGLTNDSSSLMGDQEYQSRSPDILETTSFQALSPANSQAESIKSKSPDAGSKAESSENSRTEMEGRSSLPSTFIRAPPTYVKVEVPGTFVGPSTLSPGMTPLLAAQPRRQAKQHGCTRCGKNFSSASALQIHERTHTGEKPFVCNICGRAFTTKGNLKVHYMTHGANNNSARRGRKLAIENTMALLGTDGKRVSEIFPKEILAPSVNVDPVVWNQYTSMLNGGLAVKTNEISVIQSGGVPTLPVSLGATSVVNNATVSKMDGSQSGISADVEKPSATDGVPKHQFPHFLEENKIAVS
Notes: 8-mer, flanks averaged, mean of replicates
Strand	E-score
GTACGCAC	-0.114
AGAAGATC	-0.0947
CAGGTGAC	-0.209
ACCGACGC	-0.182
GGTTTGCA	-0.132
CGCTCGAC	-0.333
GATGCGGA	-0.216
TACTCACA	0.122
AGGGGGTA	-0.153

Further values, each from its own experiment
Substance	target	test	test system	setting	scale	endpoint	result
PhoQ, residues 284 288 289 292 302 303 TVTVVA	PhoP, residues 12 14 15 18 19 VHSCL (Escherichia coli, UniProt P23836)	Sort-seq, measured: YFP reporter	E. coli	PhoQ-PhoP variant library, together with: 10 µM Mg2+	reference: high Mg2+ state, higher = stronger signaling	fold induction	7.58

A few entries again (series 3):
Strand	E-score
GGTTTGCA	-0.132
CGCTCGAC	-0.333
GATGCGGA	-0.216
